Assay results gathered from unrelated publications.
± gives the spread as reported. ≈ marks a conversion by molar mass, not a printed value.

SMILES | assay | system | setting | scale | endpoint | value
Cn1cc([C@H]2C[C@H]3CSC(N)=N[C@@]3(c3ccc(F)cc3F)CO2)cn1 | – | male 129/SVE mouse, plasma | subcutaneous, 3 mg/kg, 1 h | – | plasma concentration | 164 nM
CO[C@H]1C[C@@H]2CC[C@@H](C)[C@@](O)(O2)C(=O)C(=O)N2CCCC[C@H]2C(=O)O[C@H]([C@H](C)C[C@@H]2CC[C@@H](O)[C@H](OC)C2)CC(=O)[C@H](C)/C=C(\C)[C@@H](O)[C@@H](OC)C(=O)[C@H](C)C[C@H](C)/C=C/C=C/C=C/1C | – | healthy adult horses | intravenous, 0.06 mg/kg, 8 h | – | heart rate | 35.5 ± 3.7 beats/min
COc1ccc2c(c1)CN(C(=O)CCN1CCC(Cc3ccccc3)CC1)CC[S@@+]2[O-] | telemetry | conscious male beagle dogs | intravenous, 8 mg/kg, 2 h | – | QTc interval | 260 ± 11 ms
O=C(O)c1cc(O)c(O)c(O)c1 | – | rat, plasma | oral, 500 mg/kg extract, extract | – | MRT | 5.89 ± 0.21 h
CCCC1CCC(c2ccc(-c3ccc(F)c(F)c3)cc2)CC1 (centres unmarked) | – | Sprague-Dawley rat, female, placenta | 5000 ng/mL in perfusate, 50 (unit not given), high dose, mixture of 21 LCMs | – | median placental accumulation | 203 ng/g
CNCc1ccc(-c2[nH]c3cc(F)cc4c3c2CCNC4=O)cc1 | – | human patients | oral, 480 mg twice daily, all grades | – | nausea incidence | 44.4%
CC(C)(C(=O)N1CCOc2c(C#N)cncc2C1)C(F)F | item: Radiculopathy | human | oral, 10 mg, CSF pharmacokinetic cohort | – | subjects with adverse event | 0%
O=S(=O)(NCc1ccccn1)c1ccc(Cl)c(Cl)c1Cl | – | aqueous buffer | pH 7.4 | – | thermodynamic solubility | 30.4 µM (≈ 10.7 µg/mL)
COc1cc([C@H]2Oc3ccc([C@H]4Oc5cc(O)cc(O)c5C(=O)[C@@H]4O)cc3O[C@@H]2CO)ccc1O | – | FVB wild-type mice, plasma | oral gavage, 500 mg/kg silymarin, geometric mean | – | AUC(0-4h) | 0.16 µM·h
Nc1ncnc2c1ncn2[C@H]1C[C@@H]2OP(=O)(O)OC[C@H]3O[C@@H](n4cnc5c(N)ncnc54)C[C@@H]3OP(=O)(O)OC[C@H]2O1 | – | non-tumor-bearing mice, serum | intravenous, 1 mg/kg, toxicity study | – | ALP | 187 ± 61.1 U/L
NS(=O)(=O)OC[C@@H]1C[C@@H](n2ccc3c(N[C@H]4CCc5ccccc54)ncnc32)C[C@@H]1O | – | human, plasma | day 8 cycle 1, median, all dose levels, added: irinotecan and temozolomide | – | clearance | 19.4 L/h/m2
CCOc1c([C@H](C)n2nc(C)c3c(N)ncnc32)cc(Cl)c(F)c1[C@@H]1CNC(=O)C1 | ECG | previously treated B-cell malignancy patients | oral, 15 mg once daily, baseline below thresholds | – | observations with HR above 100 bpm | 0%
Cc1c(-c2ccc(N3CCc4cccc(C(=O)Nc5nc6ccccc6s5)c4C3)nc2C(=O)O)cnn1CC12CC3(C)CC(C)(C1)CC(OCCNCC[C@H](O)CO)(C3)C2 | – | anaesthetized male beagle dog | iv infusion, 0.1 mg/kg/min, 180 min | – | plasma concentration | < 4 ng/mL
C[C@@H](Nc1cc(F)cc(F)c1)c1cc(C(=O)N(C)C)cc2c(=O)cc(N3CCOCC3)oc12 | – | human, plasma | oral, 60 mg, day 1 single dose | – | Cmax geometric mean | 338 ng/mL
Cc1cc(Nc2cc3ncccc3c(N[C@@H]3C[C@H]4CC[C@@H](C3)N4CCC#N)n2)n[nH]1 | – | human, plasma | 270 mg, day 14, geometric mean | – | AUC(0-4) | 22.2 ng·h/mL
Cn1cc(Nc2nccc(-c3ccc4c(c3)CN(C3COC3)CC[C@H]4NC(=O)c3cn(C(C)(C)C)nn3)n2)cn1 | – | human, whole blood | 300 mg twice daily, day 7 | baseline: pre-dose baseline | class-switched memory B cell change | 97.1%
OC[C@H]1O[C@@H](c2cc(Cc3ccc(C4CC4)cc3)c(Cl)c3c2CCO3)[C@H](O)[C@@H](O)[C@@H]1O | – | healthy Korean adults, fasted, plasma | oral, 0.3 mg single dose, fixed-dose combination tablet, added: co-administered drug 50 mg | – | apparent clearance CL/F | 8540 ± 2340 mL/h
C=CC(=O)Nc1cc(Nc2nccc(-c3cn(C)c4ccccc34)n2)c(OC)cc1N(C)CCN(C)C | storage stability | human dried blood spots | 72 h, on ice, low QC level | – | recovery | 70%
C1=C/COCc2cc(ccc2OCCN2CCCC2)Nc2nccc(n2)-c2cccc(c2)COC/1 | – | rat plasma | 2 ng/mL, three freeze-thaw cycles | baseline: nominal concentration | stability relative error | 3.17%
O=C(OC(C(F)(F)F)C(F)(F)F)N1CCN(Cc2cccc(Oc3ccccc3)c2)CC1 | PET blocking study | rhesus monkey, brain OCC | 0.01 mg/kg, compound pretreatment, added: [18F]T-401 tracer | – | Ktrans | 0.0013 min⁻¹

For quick reference, copied from above:
SMILES | assay | system | setting | scale | endpoint | value
C[C@@H](Nc1cc(F)cc(F)c1)c1cc(C(=O)N(C)C)cc2c(=O)cc(N3CCOCC3)oc12 | – | human, plasma | oral, 60 mg, day 1 single dose | – | Cmax geometric mean | 338 ng/mL
Cc1cc(Nc2cc3ncccc3c(N[C@@H]3C[C@H]4CC[C@@H](C3)N4CCC#N)n2)n[nH]1 | – | human, plasma | 270 mg, day 14, geometric mean | – | AUC(0-4) | 22.2 ng·h/mL
Cn1cc(Nc2nccc(-c3ccc4c(c3)CN(C3COC3)CC[C@H]4NC(=O)c3cn(C(C)(C)C)nn3)n2)cn1 | – | human, whole blood | 300 mg twice daily, day 7 | baseline: pre-dose baseline | class-switched memory B cell change | 97.1%
